Results pooled from the literature.
Parts stem from different laboratories: compare values within a part only. Substitutions count along the parent as printed.

Study 1
Target: RNA binding protein fox-1 homolog 2, RRM domain, GST-SBP tag (RBFOX2, Homo sapiens, UniProt O43251-10, residues 100-194)
Technique: RNA Bind-n-Seq
Form: RNA
Medium: in vitro
Tested at: 365 nM
Setting: natural RNA segment, single round, ends assumed
Reference: no-protein control
Reading: higher = stronger binding
Shared flanks, not repeated: GGGAGUUCUACAGUCCGACGAUC … UGGAAUUCUCGGGUGCCAA
Construct (chain): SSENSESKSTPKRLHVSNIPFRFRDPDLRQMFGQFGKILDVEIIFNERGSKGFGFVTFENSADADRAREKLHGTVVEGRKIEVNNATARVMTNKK
| Sequence | RBNS enrichment (R) |
| --- | --- |
| UUUGUAUUGUAAAAUAACAGCUAAUUUCAUCAGGAACAAGAGAAUUAAGGGGGUCUGCAUUUUAAAUGCAGAUGUGAAGCACUUGUAUAUAAAUAAAAGUAAAUACUAUA | 0.772 |
| GACAGACUCCUAACCUGGGGCCUCUGCAGUGGCAGGCGAGGCUGCAGGAGGCCCACAGAUAAGCUGGCAAGAGGAAGGAUCCCAGGCACAUGGUUCAUCACGAGCAUGAG | 1.16 |
| GCUGUUAAAUUUCUUCAAGUCCAGAGAAGCAAAUCUUAGUGCGGGCAGACCGAGUUAGUGUUUGAUGCGACUAUCUCCAUCCUUAGUAUGGAUGUGGUCAGUUCUGCACA | 0.502 |
| GGGAGCCCCACGCUUCAGGAGUAGACUAGAGCCACCUCACUUGUGUUCCGUGGGGUUACAUUUGCUUAAGGAUACACCUUACUUUUUAAUAAAUGGUUUUGAUUGUUCAA | 0.402 |
| GGACGUGGGGCAGCCACCCCUGCCCAGCGAGAGCGCAGACACCGUGUGAGGGGACAGCAGCCCUUGGUGCAAAGCCAGAGACUGAUCCUGGCUCUGACGGCUGAAGAGGG | 0.3 |
| AUACUAAAAUCAUUUGUCUAAAAUUUAAGUUGUUUUCAAAUAAAAGUUGAAAUGCAUUCCUGUGUGCUCUGGUUGCACGGCCUCCAGAGCCUGGCGUCCGUGCUCUGUCC | 0.283 |
| AAGACCAAGGCAGAUAGAUGCAGCUAUGUGUACAUUGUAUAUUUUUGUGAACUUCUCAAGCACGCACUCCCGUUUCCCUCUGCUUUGCAGAGGUUUUGAUGUAUCCCUGC | 1.13 |
| UUCAUAAUUCAGGGGCUGUGGAUAGGAUUGUUCCUCUGUUUCCCUAAUCAUUCAUCUGUUCAUGUCUCCCUCUUGUGCCAGUCAGCCUAGGUUAUACAGAUGCCAUGCUC | 0.77 |
| GCCAGCCAGUGAUUUUCUUUUAAAUGAAAAUGAUGGGAUGAGAUGUAAUUUUAGAUCGGGAAGAGAGUGUGUGUCUAAUUCUUUUGAGUAUGCCUGUGCCAUCAGAGAAG | 1.53 |
| CCAUGGGCUGGCAUGGGGCUCCCACAGGAUCAGAGGCUGGGGCCAACUGGAACCAUUGGCAGCUGCACGCUCAUUACUACCCUCCGCUCCUGCGCUCUGCCACUGUCCGG | 5.91 |
| CAUGUGGCUUUAUGUGAGGGGACUGAAUGCAGACACACCAUAGCCCCCUUCUACUACUUUCCCUCUCGCCCUGCCACCUAGUUCCACAUGGAACCAACAAGUUGAGUGCA | 0.824 |
| UUACUGGAAGGACAGGUUAACUGAAUGUCUGUGAUCACUAACAGGUGAUGGGCUUUGUGCCCACUCCAGAGAUAUUGUGGGAGACAAAUUCUUUUAACAGCCUGUCCUCC | 0.325 |

Study 2
Molecule: PhoQ, residues 284 288 289 292 302 303 SSTLLI
Technique: Sort-seq
Refers to: YFP reporter
Medium: E. coli
Setting: PhoQ-PhoP variant library
Together with: 10 µM Mg2+
Reference: high Mg2+ state
Reading: higher = stronger signaling
| target | fold induction |
| --- | --- |
| PhoP, residues 12 14 15 18 19 SHWTV (Escherichia coli, UniProt P23836) | 0.928 |
| PhoP, residues 12 14 15 18 19 STHWV (Escherichia coli, UniProt P23836) | 0.644 |
| PhoP, residues 12 14 15 18 19 QYCSL (Escherichia coli, UniProt P23836) | 10.3 |

Study 3
Target: CCNF, cyclin fold, Cln2 fusion (human)
Technique: yeast growth competition, sequencing
Medium: yeast
Setting: strong parent motif
Reference: not given
Reading: higher = stronger binding
Starting sequence: INSM1 docking peptide (human); PKAIRKLHFEDEV
| Change | normalised enrichment score |
| --- | --- |
| K2R | 7.85 |
| E10G | 7.94 |
| E10H | 7.08 |
| H8Y | 7.96 |
| I4A | 7.52 |
| I4S | 7.51 |
| D11Y | 7.53 |
| I4R | 8.16 |
| E12Q | 7.51 |
| L7H | -0.098 |
| R5I | 0.296 |
| H8A | 6.83 |
| A3S | 5.69 |
| K2A | 7.3 |
| E10F | 7.8 |
| E10W | 7.75 |
| I4H | 7.28 |
| I4N | 7.71 |
| F9E | 0.0394 |
| H8G | 4.93 |
| I4G | 7.13 |

Study 4
Target: PABPC1L2, full length, GST fusion (mouse, UniProt A0ABA7IW68)
Technique: RNAcompete
Form: RNA
Medium: in vitro
Tested at: 20 nM
Setting: 7-mer, probes averaged, single round
Reference: mean of 7-mers
Reading: higher = stronger binding
Target sequence (chain): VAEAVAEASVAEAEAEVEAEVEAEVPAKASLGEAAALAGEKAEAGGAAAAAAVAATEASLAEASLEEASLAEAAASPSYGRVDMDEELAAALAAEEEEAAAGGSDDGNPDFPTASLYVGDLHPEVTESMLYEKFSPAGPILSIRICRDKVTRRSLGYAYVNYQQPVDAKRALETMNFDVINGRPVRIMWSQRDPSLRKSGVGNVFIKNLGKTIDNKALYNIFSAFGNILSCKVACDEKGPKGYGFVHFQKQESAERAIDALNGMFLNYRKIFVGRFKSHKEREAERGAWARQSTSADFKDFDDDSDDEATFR
| Sequence | 7-mer Z-score |
| --- | --- |
| CUGACUG | -0.264 |
| ACGUCGC | -0.3 |
| GGCCUAG | -0.202 |
| AGACCCC | -0.405 |
| UUGCUAC | -0.329 |
| CCGUCGC | -0.527 |
| GUCUACA | -0.229 |
| AAUAUAG | 0.267 |
| AAGCGGU | 0.278 |
| UCACAUU | -0.171 |
| UACGCGU | -0.362 |
| CUGAUGU | -0.248 |

Repeated from above (study 4):
| Sequence | 7-mer Z-score |
| --- | --- |
| AAGCGGU | 0.278 |
| UCACAUU | -0.171 |
| UACGCGU | -0.362 |
